Assay results of several laboratories.
A part holds a random share of what one study measured. Values joined by “and” are separate records of one study, mostly repeats; a detail may differ.

Sample 1
SMILES: Cn1cc(-c2cccc(CN3CCC4(CC3)COc3c4ccc4c3CN([C@H]3CCC(=O)NC3=O)C4=O)c2)cn1
Species: Crbn I391V mouse, MC-38 tumour
| conditions | body weight change |
| --- | --- |
| 30 mg/kg, day 46, added: anti-LAG3 antibody 10 mg/kg weekly | 11.1% |
| 30 mg/kg, day 41, added: anti-LAG3 antibody 10 mg/kg weekly | 8.2% |
| oral, 30 mg/kg once daily, day 3 | -2.5% and -0.5% and -0.8% and -2% |
| 30 mg/kg, day 23, added: anti-LAG3 antibody 10 mg/kg weekly | -3.1% and -2.5% and 2% and -1.6% and 0.8% and 4.5% |
| oral, 30 mg/kg once daily, day 22 | 0.9% and -3.6% and -1.4% and 5.8% |
| oral, 30 mg/kg once daily, day 14 | -1.6% and -3.8% and 5.6% and 0% and 1.5% |
| 30 mg/kg, day 13, added: anti-LAG3 antibody 10 mg/kg weekly | 10.1% and 0% and -2.5% and -1% |
| 30 mg/kg, day 1, added: anti-LAG3 antibody 10 mg/kg weekly | 0% |
| oral, daily, 30 mg/kg, day 1, anti-PD1 combination study | 0% |
| oral, daily, 30 mg/kg, day 22, anti-PD1 combination study | -1.1% and 6.3% and 9% and 4.5% and -0.3% |
| 30 mg/kg, day 17, added: anti-LAG3 antibody 10 mg/kg weekly | 1.4% and -0.3% and 5.3% and 7.4% and 0% and -2.9% and 1.2% and -0.8% |

Sample 2
Compound: CCN1/C(=C/C=C2\CCCC(/C=C/C3=[N+](CC)c4ccccc4C3(C)C)=C2NCCCCCCCCN2CCC(Nc3nc4ccccc4n3Cc3ccc(F)cc3)CC2)C(C)(C)c2ccccc21
Cell line: U-87 MG
Concentration: concentration not given
Reference: DMSO
| assay | log2 fold change |
| --- | --- |
| refers to: SEMA6D mRNA | 2.32 |
| refers to: CCN4 mRNA | -3.88 |
| refers to: IRS2 mRNA | 1.6 |
| refers to: ZNF133 mRNA | 0.845 |
| refers to: B3GNTL1 mRNA | -0.96 |
| refers to: PHLDB1 mRNA | -1.4 |
| refers to: RIPK4 mRNA | -1.36 |
| refers to: SEPHS1 mRNA | -0.909 |

Sample 3
Structure (SMILES): C=CC(=O)N1CCN(c2nc(OC[C@@H]3CCCN3C)nc3c2CCN(c2cccc4cccc(C)c24)C3)C[C@@H]1CC#N
Observed: binding
Mode: competitor
Method: NanoBRET
Cell line: HEK293
KRAS Q61H: GTPase KRas (KRAS, Homo sapiens, UniProt P01116, Q61H)
HRAS: GTPase HRas (HRAS, Homo sapiens, UniProt P01112)
| target | conditions | normalized BRET |
| --- | --- | --- |
| KRAS Q61H | 20 µM | 11.7% and 15.5% and 20.4% |
| GTPase KRas (KRAS, Homo sapiens, UniProt P01116, Q61R) | 2.22 µM | 106% and 108% and 87.3% |
| HRAS | 3.05 nM | 99.9% and 94.9% |
| HRAS | 27.4 nM | 101% and 85.5% |
| HRAS | 611 pM | 104% |
| GTPase KRas (KRAS, Homo sapiens, UniProt P01116, G13D) | 2.22 µM | 42.2% and 31.2% and 39.1% |
| KRAS Q61H | 27.4 nM | 96.5% and 93% and 88.9% |
| GTPase KRas (KRAS, Homo sapiens, UniProt P01116, G12D) | 611 pM | 104% |

Other studies, line by line
| Compound | organism | assay | test system | conditions | quantity | result |
| --- | --- | --- | --- | --- | --- | --- |
| C#CCN1C(=O)C(O)(C(=O)O)Oc2cc(F)ccc21 (stereo not shown) | Arabidopsis thaliana | root length | Col-0 | 50.0 µg/mL, 7 days, seed germination, dark | inhibition | 87% |

Excerpt of the above (other studies, line by line):
| Compound | organism | assay | test system | conditions | quantity | result |
| --- | --- | --- | --- | --- | --- | --- |
| C#CCN1C(=O)C(O)(C(=O)O)Oc2cc(F)ccc21 (stereo not shown) | Arabidopsis thaliana | root length | Col-0 | 50.0 µg/mL, 7 days, seed germination, dark | inhibition | 87% |
